Measurements collected from several papers.
Each line is one published result; not all experiments were run side by side. Values joined by “and” are separate records of one study, mostly repeats; a detail may differ. ± marks the error that the study gave.
PTPN1: Tyrosine-protein phosphatase non-receptor type 1 (PTPN1, Homo sapiens, UniProt P18031)

Amino acid sequences for entries named in this document (tags omitted). Residues count along the entry.
UniProt P18031, 1-321 limits assumed: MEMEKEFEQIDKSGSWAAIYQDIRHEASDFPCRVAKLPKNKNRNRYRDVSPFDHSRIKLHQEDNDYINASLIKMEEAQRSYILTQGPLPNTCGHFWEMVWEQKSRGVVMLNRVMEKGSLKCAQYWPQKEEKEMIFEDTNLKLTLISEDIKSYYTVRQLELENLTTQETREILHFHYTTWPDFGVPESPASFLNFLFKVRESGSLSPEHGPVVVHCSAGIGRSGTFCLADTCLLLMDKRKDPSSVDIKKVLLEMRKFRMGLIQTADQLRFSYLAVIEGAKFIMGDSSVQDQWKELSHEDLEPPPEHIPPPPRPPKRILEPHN
UniProt P18031, whole entry: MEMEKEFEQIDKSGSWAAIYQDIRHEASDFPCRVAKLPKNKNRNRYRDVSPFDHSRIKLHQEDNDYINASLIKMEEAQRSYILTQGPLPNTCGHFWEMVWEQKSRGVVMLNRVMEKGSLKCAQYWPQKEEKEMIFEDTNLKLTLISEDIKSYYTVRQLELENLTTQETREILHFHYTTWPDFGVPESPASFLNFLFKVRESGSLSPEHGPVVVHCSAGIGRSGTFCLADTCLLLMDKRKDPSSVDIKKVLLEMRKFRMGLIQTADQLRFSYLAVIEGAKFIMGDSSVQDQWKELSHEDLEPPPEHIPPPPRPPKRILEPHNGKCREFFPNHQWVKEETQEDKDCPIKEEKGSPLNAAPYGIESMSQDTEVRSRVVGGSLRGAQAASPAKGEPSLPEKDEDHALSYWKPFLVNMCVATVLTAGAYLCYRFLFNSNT
UniProt P19821, whole entry: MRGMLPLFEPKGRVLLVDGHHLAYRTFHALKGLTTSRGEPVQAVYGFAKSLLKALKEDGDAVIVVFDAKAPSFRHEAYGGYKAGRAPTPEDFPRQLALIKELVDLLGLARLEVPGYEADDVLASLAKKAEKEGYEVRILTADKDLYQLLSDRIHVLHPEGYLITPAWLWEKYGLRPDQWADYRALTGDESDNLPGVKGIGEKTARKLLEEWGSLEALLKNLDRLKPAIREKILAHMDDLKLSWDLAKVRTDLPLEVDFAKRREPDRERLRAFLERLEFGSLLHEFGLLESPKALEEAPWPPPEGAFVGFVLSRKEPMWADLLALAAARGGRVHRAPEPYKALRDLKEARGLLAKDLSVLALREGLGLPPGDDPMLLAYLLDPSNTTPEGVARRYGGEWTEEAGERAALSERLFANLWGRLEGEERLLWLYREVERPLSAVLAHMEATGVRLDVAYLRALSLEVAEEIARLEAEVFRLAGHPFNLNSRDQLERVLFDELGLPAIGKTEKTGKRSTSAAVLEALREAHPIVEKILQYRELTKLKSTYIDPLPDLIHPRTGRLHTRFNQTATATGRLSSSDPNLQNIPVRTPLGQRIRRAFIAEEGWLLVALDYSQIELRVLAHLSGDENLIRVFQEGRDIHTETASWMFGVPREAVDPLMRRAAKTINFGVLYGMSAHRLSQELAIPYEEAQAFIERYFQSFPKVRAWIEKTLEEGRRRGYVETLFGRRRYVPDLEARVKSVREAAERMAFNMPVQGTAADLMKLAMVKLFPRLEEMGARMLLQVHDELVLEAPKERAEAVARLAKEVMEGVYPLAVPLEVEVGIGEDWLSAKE
UniProt P30419, whole entry: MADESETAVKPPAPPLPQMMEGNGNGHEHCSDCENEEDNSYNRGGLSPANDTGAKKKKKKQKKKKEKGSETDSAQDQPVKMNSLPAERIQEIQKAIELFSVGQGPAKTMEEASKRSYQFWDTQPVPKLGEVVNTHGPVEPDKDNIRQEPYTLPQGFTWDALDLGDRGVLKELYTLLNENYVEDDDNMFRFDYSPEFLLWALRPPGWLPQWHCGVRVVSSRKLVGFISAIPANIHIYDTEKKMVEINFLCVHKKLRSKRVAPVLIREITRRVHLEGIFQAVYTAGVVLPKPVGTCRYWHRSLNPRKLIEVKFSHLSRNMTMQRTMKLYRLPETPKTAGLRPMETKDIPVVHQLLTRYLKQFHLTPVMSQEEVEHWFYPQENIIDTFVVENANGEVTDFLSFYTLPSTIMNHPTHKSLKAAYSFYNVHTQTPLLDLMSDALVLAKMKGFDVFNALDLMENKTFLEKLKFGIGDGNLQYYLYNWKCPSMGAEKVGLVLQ
UniProt Q9UBN7, whole entry: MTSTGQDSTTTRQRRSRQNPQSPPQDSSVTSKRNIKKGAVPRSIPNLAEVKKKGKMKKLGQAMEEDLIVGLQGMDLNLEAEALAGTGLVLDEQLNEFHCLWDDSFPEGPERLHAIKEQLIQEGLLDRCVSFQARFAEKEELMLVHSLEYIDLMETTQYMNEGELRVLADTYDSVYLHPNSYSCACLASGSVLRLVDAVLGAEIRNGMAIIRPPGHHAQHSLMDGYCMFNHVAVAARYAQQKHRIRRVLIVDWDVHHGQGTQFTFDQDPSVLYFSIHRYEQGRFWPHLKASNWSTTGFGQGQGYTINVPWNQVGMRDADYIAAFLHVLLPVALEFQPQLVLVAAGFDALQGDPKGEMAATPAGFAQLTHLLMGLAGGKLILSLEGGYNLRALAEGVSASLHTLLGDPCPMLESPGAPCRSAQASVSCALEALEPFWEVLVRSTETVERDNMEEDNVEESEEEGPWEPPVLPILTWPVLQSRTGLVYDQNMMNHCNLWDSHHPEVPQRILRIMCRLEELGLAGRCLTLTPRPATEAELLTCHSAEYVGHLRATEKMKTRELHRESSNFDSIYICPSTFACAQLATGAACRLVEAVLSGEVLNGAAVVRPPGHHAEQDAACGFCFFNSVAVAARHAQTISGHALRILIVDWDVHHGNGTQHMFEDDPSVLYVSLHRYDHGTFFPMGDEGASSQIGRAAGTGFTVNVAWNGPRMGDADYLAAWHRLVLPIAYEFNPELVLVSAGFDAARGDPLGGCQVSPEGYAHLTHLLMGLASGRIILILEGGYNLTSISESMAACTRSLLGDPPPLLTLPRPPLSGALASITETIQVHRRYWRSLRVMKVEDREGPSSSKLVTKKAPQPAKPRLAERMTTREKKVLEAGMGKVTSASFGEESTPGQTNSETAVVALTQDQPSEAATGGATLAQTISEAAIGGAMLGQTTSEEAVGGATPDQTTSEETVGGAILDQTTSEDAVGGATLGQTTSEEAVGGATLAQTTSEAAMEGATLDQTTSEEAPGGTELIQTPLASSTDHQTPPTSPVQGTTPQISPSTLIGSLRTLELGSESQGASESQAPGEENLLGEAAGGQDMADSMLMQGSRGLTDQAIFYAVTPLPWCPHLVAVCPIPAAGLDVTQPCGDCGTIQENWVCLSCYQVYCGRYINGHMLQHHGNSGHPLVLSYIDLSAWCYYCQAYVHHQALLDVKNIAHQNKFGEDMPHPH
UniProt Q5JRX3, 29-1037 limits assumed: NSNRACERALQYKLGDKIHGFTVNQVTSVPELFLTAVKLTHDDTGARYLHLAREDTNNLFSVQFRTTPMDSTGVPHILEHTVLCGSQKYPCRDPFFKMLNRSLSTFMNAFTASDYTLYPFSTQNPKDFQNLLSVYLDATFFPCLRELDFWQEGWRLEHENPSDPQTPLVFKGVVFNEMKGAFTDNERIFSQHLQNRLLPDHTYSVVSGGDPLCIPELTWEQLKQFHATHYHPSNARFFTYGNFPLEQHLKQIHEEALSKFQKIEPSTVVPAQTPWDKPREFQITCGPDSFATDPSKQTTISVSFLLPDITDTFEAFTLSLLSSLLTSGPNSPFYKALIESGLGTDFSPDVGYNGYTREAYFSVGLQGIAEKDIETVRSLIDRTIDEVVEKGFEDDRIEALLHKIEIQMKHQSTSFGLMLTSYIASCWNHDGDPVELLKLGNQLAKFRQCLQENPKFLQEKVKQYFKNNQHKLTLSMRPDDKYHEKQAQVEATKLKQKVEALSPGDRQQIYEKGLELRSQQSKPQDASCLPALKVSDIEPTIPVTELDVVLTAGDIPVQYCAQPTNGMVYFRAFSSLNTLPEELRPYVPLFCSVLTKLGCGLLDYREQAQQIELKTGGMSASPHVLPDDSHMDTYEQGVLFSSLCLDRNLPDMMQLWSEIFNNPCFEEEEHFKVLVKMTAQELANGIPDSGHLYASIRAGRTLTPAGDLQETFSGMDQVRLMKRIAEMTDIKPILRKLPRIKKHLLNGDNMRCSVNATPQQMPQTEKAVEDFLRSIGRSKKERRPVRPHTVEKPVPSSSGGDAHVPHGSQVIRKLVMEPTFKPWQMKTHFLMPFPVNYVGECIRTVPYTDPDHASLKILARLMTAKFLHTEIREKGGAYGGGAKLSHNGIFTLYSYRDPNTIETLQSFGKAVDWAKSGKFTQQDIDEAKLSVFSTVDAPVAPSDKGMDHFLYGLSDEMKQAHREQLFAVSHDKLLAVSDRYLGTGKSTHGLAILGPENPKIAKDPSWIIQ
UniProt Q16539, whole entry: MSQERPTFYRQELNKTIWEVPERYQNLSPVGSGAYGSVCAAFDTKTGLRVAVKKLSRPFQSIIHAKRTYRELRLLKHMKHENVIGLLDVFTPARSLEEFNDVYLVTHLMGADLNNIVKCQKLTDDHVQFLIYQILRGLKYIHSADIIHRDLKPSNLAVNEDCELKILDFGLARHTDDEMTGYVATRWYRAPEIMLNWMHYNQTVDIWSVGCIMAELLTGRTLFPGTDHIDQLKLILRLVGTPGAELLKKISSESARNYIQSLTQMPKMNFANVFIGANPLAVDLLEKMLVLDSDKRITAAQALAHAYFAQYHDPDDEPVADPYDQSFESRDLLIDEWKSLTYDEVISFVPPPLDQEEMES
UniProt Q66478, 863-1012 limits assumed: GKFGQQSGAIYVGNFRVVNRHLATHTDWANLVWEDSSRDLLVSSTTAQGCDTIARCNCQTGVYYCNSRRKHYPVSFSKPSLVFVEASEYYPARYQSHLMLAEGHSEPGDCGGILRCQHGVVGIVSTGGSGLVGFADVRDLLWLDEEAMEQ
UniProt O60502, whole entry: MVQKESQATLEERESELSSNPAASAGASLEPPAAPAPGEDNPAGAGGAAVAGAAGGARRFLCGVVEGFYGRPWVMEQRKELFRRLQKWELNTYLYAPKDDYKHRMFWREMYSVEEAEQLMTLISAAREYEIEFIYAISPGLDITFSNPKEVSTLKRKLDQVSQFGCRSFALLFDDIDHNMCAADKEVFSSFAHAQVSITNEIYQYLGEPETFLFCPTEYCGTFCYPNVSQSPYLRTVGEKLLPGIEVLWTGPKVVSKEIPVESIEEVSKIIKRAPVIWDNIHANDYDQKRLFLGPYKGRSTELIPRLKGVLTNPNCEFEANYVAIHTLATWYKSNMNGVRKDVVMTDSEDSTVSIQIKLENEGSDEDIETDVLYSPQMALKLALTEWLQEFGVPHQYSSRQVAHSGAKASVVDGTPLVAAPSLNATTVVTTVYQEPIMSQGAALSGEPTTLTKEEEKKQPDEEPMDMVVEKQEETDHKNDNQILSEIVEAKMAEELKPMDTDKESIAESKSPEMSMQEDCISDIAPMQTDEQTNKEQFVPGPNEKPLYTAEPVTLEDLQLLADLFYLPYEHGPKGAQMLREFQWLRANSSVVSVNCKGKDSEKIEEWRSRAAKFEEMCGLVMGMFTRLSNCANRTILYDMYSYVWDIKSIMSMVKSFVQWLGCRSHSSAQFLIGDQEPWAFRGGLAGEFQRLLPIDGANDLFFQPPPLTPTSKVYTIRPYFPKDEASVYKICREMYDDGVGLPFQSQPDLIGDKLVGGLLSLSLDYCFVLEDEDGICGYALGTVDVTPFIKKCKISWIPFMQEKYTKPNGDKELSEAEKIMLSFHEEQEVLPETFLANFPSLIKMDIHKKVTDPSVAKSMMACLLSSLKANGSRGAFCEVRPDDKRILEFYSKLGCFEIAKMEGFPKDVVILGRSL
UniProt P17706, whole entry: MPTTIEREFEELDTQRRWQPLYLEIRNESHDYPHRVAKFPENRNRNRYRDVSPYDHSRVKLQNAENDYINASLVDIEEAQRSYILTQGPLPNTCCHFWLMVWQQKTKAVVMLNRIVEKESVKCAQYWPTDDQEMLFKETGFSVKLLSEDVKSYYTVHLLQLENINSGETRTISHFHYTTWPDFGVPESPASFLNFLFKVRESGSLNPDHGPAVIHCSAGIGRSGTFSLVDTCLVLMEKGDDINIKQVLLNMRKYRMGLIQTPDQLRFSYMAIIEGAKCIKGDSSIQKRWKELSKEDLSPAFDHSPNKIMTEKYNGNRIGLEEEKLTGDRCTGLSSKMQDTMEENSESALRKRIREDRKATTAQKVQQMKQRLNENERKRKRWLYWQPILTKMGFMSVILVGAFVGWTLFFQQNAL

SMILES | tested on | test | system | setting | scale | endpoint | value
CC/C=C\C/C=C\CCC/C=C/C=C/C=C\CCCC(=O)O | DNA polymerase I, thermostable (polA, Thermus aquaticus, UniProt P19821) | enzyme activity, inhibitor |  | Taq polymerase |  | IC50 | > 100 µM
CC(=O)N[C@@H](C)C(=O)N[C@@H](C)C(=O)N[C@@H](Cc1ccc(OP(=O)(O)O)cc1)C(=O)N[C@@H](C)C(=O)N[C@@H](C)C(=O)N[C@@H](CC(=O)O)C(=O)N[C@@H](CC(=O)O)C(=O)N[C@@H](C)C(N)=O | PTPN1 | substrate |  | pH 7.4, catalytic domain |  | Km | 2.6 ± 0.1 µM
CC(=O)N[C@@H](C)C(=O)N[C@@H](CO)C(=O)N[C@@H](CO)C(=O)N[C@@H](CC(=O)O)C(=O)N[C@@H](CC(=O)O)C(=O)N[C@@H](Cc1ccc(OP(=O)(O)O)cc1)C(=O)N[C@@H](C)C(=O)N[C@@H](C)C(N)=O | PTPN1 | substrate, continuous UV |  | pH 7.4, multiply phosphorylated peptides apparent |  | Km | 18 ± 1 µM
NCC(=O)N[C@@H](CCC(N)=O)C(=O)N[C@@H](CO)C(=O)N[C@@H](CCC(N)=O)C(=O)N[C@@H](CO)C(=O)NCC(=O)NCC(=O)N[C@@H](Cc1c[nH]cn1)C(=O)O | Glycylpeptide N-tetradecanoyltransferase 1 (NMT1, Homo sapiens, UniProt P30419) | substrate |  |  |  | Km | 40 µM
CC[C@H](C)[C@H](NC(=O)[C@@H]1CCCN1C(=O)[C@H](Cc1ccccc1)NC(=O)[C@H](Cc1ccc(OP(=O)(O)O)cc1)NC(=O)[C@H](C)NC(C)=O)C(=O)N[C@@H](Cc1c[nH]c2ccccc12)C(=O)N[C@@H](Cc1ccc(OP(=O)(O)O)cc1)C(=O)N[C@@H](C)C(=O)N[C@@H](C)C(N)=O | PTPN1 | substrate, continuous UV |  | pH 7.4, multiply phosphorylated peptides apparent |  | Km | 3.5 ± 0.4 µM
CC(=O)NCCCC[C@H](NC(=O)[C@H](CCCCNC(C)=O)NC(=O)[C@H](Cc1c[nH]cn1)NC(=O)[C@H](CCCNC(=N)N)NC(C)=O)C(=O)Nc1ccc2c(C)cc(=O)oc2c1 | Protein deacetylase HDAC6 (HDAC6, Homo sapiens, UniProt Q9UBN7) | substrate |  | 25 °C |  | Km | 9 ± 3 µM
CC(C)C[C@H](NC(=O)CNC(=O)CNC(=O)[C@H](Cc1ccc(O)cc1)NC(=O)c1ccccc1N)C(=O)N[C@@H](CCCNC(=N)N)C(=O)N[C@@H](CCCNC(=N)N)C(=O)NCC(=O)N[C@@H](CCC(N)=O)C(=O)NCCNc1ccc([N+](=O)[O-])cc1[N+](=O)[O-] | Presequence protease, mitochondrial (Homo sapiens, UniProt Q5JRX3) | substrate |  | pH 7.5 |  | Km | 0.5 µM
CC(C)C[C@H](NC(=O)[C@@H](NC(=O)[C@H](CC(C)C)NC(=O)[C@H](CS)NC(=O)CNS(=O)(=O)c1cccc2c(N(C)C)cccc12)C(C)C)C(=O)O | geranylgeranyltransferase type-I (Rattus norvegicus, UniProt P53610+Q04631) | substrate, fluorescence |  | 30 °C, with: SmgGDS-607 5 µM and GGPP 10 µM |  | Km | 3.1 ± 1.7 µM
CC[C@H](C)[C@H](NC(=O)[C@@H](NC(=O)[C@H](Cc1ccccc1)NC(=O)[C@H](CCC(=O)O)NC(=O)CNC(=O)[C@H](Cc1ccc(OP(=O)(O)O)cc1)NC(=O)[C@@H](NC(=O)[C@H](CC(=O)O)NC(=O)[C@H](C)NC(=O)[C@@H](NC(=O)[C@H](CC(=O)O)NC(C)=O)[C@@H](C)O)C(C)C)[C@@H](C)O)C(N)=O | PTPN1 | substrate, continuous UV |  | pH 7.4, multiply phosphorylated peptides apparent |  | Km | 7 ± 1 µM
CC(C)CC(NC(=O)C(Cc1ccccc1)NC(=O)c1cnc(C(=O)NC(Cc2ccccc2)C(=O)NC(CC(C)C)B(O)O)cn1)B(O)O (stereo not drawn) | proteasome (human) | trypsin-like activity, inhibitor, Proteasome-Glo | RPMI-8226 | 24 h |  | IC50 | > 0.018 µM
CC[C@H](C)[C@H](NC(=O)CNC(=O)[C@H](CCCNC(=N)N)NC(=O)[C@@H]1CCCN1C(=O)[C@H](CC(=O)O)NC(C)=O)C(=O)N[C@@H](Cc1ccc(OP(=O)(O)O)cc1)C(=O)N[C@@H](CC(=O)O)C(=O)N[C@@H](CCC(N)=O)C(=O)N[C@H](C(=O)N[C@@H](C)C(=O)NCC(N)=O)C(C)C | PTPN1 | substrate |  | pH 7.4, catalytic domain |  | Km | 7.1 ± 0.4 µM
CC(=O)N[C@@H](CC(=O)O)C(=O)N[C@@H](C)C(=O)N[C@@H](C)C(=O)N[C@@H](CC(=O)O)C(=O)N[C@H](C(=O)N[C@@H](Cc1ccc(OP(=O)(O)O)cc1)C(=O)N[C@@H](C)C(=O)N[C@@H](C)C(N)=O)C(C)C | PTPN1 | substrate, continuous UV |  | pH 7.4, multiply phosphorylated peptides apparent |  | Km | 10 ± 1 µM
CC(C)C[C@H](NC(=O)[C@H](C)NC(=O)[C@H](CCCNC(=N)N)NC(=O)[C@H](CCCNC(=N)N)NC(=O)[C@H](CCCNC(=N)N)NC(=O)[C@H](C)NC(=O)[C@H](CC(C)C)NC(=O)[C@H](CCCNC(=N)N)NC(=O)[C@H](CO)NC(=O)[C@H](CCCCN)NC(=O)[C@H](CO)NC(=O)Cn1cc(COC(=O)[C@]2(C)C=C(C(=O)OC(C)(C)C)C(=O)CC2)nn1)C(=O)O | Mitogen-activated protein kinase 14 (MAPK14, Homo sapiens, UniProt Q16539) | enzyme activity, inhibitor, D-SENSOR kinase |  | 0.823 µM, unit not given | reference: untreated | remaining activity | 0.353 and 0.306 and 0.297
CC(=O)N[C@@H](C)C(=O)N[C@@H](Cc1c[nH]c2ccccc12)C(=O)N[C@@H](CO)C(=O)N[C@@H](Cc1ccc(OP(=O)(O)O)cc1)C(=O)N[C@@H](C)C(=O)N[C@@H](CC(=O)O)C(=O)N[C@@H](Cc1ccc(OP(=O)(O)O)cc1)C(=O)N[C@@H](C)C(=O)N[C@@H](C)C(N)=O | SHP-1 catalytic domain (ΔSH2) | phosphatase activity, substrate |  | pH 7.4 |  | Km | 22 ± 5 µM
CC[C@H](C)[C@H](NC(=O)[C@H](CCCCN)NC(=O)[C@H](CC(=O)O)NC(=O)[C@H](CCCNC(=N)N)NC(=O)c1ccc(N=Nc2ccc(N(C)C)cc2)cc1)C(=O)N1CCC[C@H]1C(=O)N[C@@H](Cc1ccccc1)C(=O)N[C@@H](CCSC)C(=O)NCC(=O)N[C@@H](Cc1ccc(O)cc1)C(=O)N[C@@H](CCCNC(=N)N)C(=O)NCC(=O)N[C@@H](CCC(N)=O)C(=O)N[C@@H](CC(=O)O)C(=O)N[C@@H](CCC(=O)NCCNc1cccc2c(S(=O)(=O)O)cccc12)C(N)=O | Genome polyprotein, 2A protease (Enterovirus A71, UniProt Q66478) | protease activity, substrate, FRET | enterovirus 71 | pH 7.4, 30 °C |  | Km | 15.5 ± 2.48 µM
CC(=O)N[C@H]1[C@H](OC[C@H](NC(=O)[C@H](Cc2c[nH]cn2)NC(=O)[C@H](C)NC(=O)[C@@H](NC(=O)[C@H](CCC(N)=O)NC(C)=O)C(C)C)C(=O)NCC(=O)N[C@@H](C)C(=O)N[C@@H](CCCCN)C(=O)N[C@@H](C)C(=O)N[C@@H](CO)C(N)=O)O[C@H](CO)[C@@H](O)[C@@H]1O | Protein O-GlcNAcase (OGA, Homo sapiens, UniProt O60502) | substrate |  | pH 7.5, 37 °C, with: 4MU-GlcNAc 200 µM competition |  | Km | 528 ± 15 µM
CC(=O)N[C@@H](C)C(=O)N[C@H](C(=O)N[C@@H](Cc1c[nH]c2ccccc12)C(=O)N[C@@H](CCC(=O)O)C(=O)N[C@@H](Cc1ccccc1)C(=O)N[C@@H](Cc1ccc(OP(=O)(O)O)cc1)C(=O)N[C@@H](Cc1ccc(OP(=O)(O)O)cc1)C(=O)N[C@@H](C)C(=O)N[C@@H](C)C(N)=O)C(C)C | PTPN1 | substrate, continuous UV |  | pH 7.4, multiply phosphorylated peptides apparent |  | Km | 2.9 ± 0.6 µM
C[C@H](NC(=O)[C@H](C)NC(=O)[C@H](Cc1ccc(OP(=O)(O)O)cc1)NC(=O)[C@H](Cc1ccccc1)NC(=O)[C@H](CCC(=O)O)NC(=O)[C@H](Cc1cc(F)c(O)c(F)c1)NC(=O)[C@H](CCC(=O)O)NC(=O)[C@@H](N)CCCNC(=N)N)C(N)=O | PTPN1 | enzyme activity, substrate |  | pH 7.4 |  | Km | 14 ± 2 µM
NS(=O)(=O)c1nnc(NC(=O)C2C3CC4CC(C3)CC2C4)s1 (stereo not drawn) |  |  | n-octanol/PBS | pH 7.4 |  | logD | 1.5
CC[C@H](C)[C@H](NC(=O)[C@H](Cc1ccc(OP(=O)(O)O)cc1)NC(=O)[C@H](C)NC(=O)[C@H](C)NC(C)=O)C(=O)N[C@@H](CCCNC(=N)N)C(=O)N[C@@H](CCCCN)C(=O)N[C@@H](CCCNC(=N)N)C(=O)N[C@@H](C)C(N)=O | PTPN1 | substrate |  | pH 7.4, catalytic domain |  | Km | 89 ± 2 µM
CN1C(=O)CCc2cc(CNC(C)(C)[C@@H](O)c3ccccc3)ccc21 |  |  | male CD-1 mouse, brain | subcutaneous, 10 mg/kg |  | AUC(0-t) | 247000 ng·min/mL/g
CC(=O)N[C@@H](C)C(=O)N[C@@H](C)C(=O)N[C@@H](Cc1ccc(OP(=O)(O)O)cc1)C(=O)N[C@@H](CC(=O)O)C(=O)N[C@@H](CC(=O)O)C(=O)N[C@@H](C)C(=O)N[C@@H](C)C(=O)N[C@@H](C)C(N)=O | PTPN1 | substrate |  | pH 7.4, catalytic domain |  | Km | 6.5 ± 0.1 µM
C=C(C)C(=O)Nc1ccc(-c2c(-c3ccc(Oc4nccc(C)n4)c(F)c3)c3c(N)ncnc3n2C)cc1 | MFE-296 | cell growth, CellTiter-Glo |  | 120 h, unit not given | reference: untreated growth rate, higher = stronger inhibition | area over GR curve | 0.543
N#Cc1c(-c2ccc(Cl)cc2Cl)n(-c2nc(-c3ccc(Cl)cc3)c3c(NC(=O)c4ccccc4)nnc-3[nH]2)[nH]c1=O | UACC-257 | SRB |  | 10 µM |  | cell growth | 69.7%
CCCC[C@H](NC(=O)[C@H](Cc1ccccc1)NC(C)=O)C(=O)NCC(=O)N[C@@H](C)C(=O)N[C@@H](Cc1cc(=O)oc2cc(OP(=O)(O)O)ccc12)C(=O)N[C@@H](CCC(N)=O)C(=O)N[C@@H](CC(C)C)C(=O)N[C@@H](CCC(=O)O)C(=O)N[C@@H](CCC(=O)O)C(N)=O | Tyrosine-protein phosphatase non-receptor type 2 (PTPN2, Homo sapiens, UniProt P17706) | peptide hydrolysis, substrate |  |  |  | Km | 270 ± 50 µM
CC[C@H](C)[C@H](NC(=O)[C@H](CC(=O)O)NC(=O)[C@H](CC(=O)O)NC(=O)[C@H](Cc1ccc(OP(=O)(O)O)cc1)NC(=O)[C@H](C)NC(=O)[C@H](C)NC(C)=O)C(=O)N[C@@H](CC(=O)O)C(=O)N[C@@H](CCC(=O)O)C(N)=O | PTPN1 | substrate |  | pH 7.4, catalytic domain |  | Km | 3.5 ± 0.1 µM
CCOC(=O)c1c(-c2ccc(Cl)cc2Cl)n(-c2nc(-c3ccc(Cl)cc3)c3c(NC(=O)c4ccccc4)nnc-3[nH]2)[nH]c1=O | UACC-257 | SRB |  | 10 µM |  | cell growth | 20.2%

For quick reference, copied from above:
SMILES | tested on | test | system | setting | scale | endpoint | value
CC(=O)N[C@H]1[C@H](OC[C@H](NC(=O)[C@H](Cc2c[nH]cn2)NC(=O)[C@H](C)NC(=O)[C@@H](NC(=O)[C@H](CCC(N)=O)NC(C)=O)C(C)C)C(=O)NCC(=O)N[C@@H](C)C(=O)N[C@@H](CCCCN)C(=O)N[C@@H](C)C(=O)N[C@@H](CO)C(N)=O)O[C@H](CO)[C@@H](O)[C@@H]1O | Protein O-GlcNAcase (OGA, Homo sapiens, UniProt O60502) | substrate |  | pH 7.5, 37 °C, with: 4MU-GlcNAc 200 µM competition |  | Km | 528 ± 15 µM
CC(=O)N[C@@H](C)C(=O)N[C@H](C(=O)N[C@@H](Cc1c[nH]c2ccccc12)C(=O)N[C@@H](CCC(=O)O)C(=O)N[C@@H](Cc1ccccc1)C(=O)N[C@@H](Cc1ccc(OP(=O)(O)O)cc1)C(=O)N[C@@H](Cc1ccc(OP(=O)(O)O)cc1)C(=O)N[C@@H](C)C(=O)N[C@@H](C)C(N)=O)C(C)C | PTPN1 | substrate, continuous UV |  | pH 7.4, multiply phosphorylated peptides apparent |  | Km | 2.9 ± 0.6 µM
C[C@H](NC(=O)[C@H](C)NC(=O)[C@H](Cc1ccc(OP(=O)(O)O)cc1)NC(=O)[C@H](Cc1ccccc1)NC(=O)[C@H](CCC(=O)O)NC(=O)[C@H](Cc1cc(F)c(O)c(F)c1)NC(=O)[C@H](CCC(=O)O)NC(=O)[C@@H](N)CCCNC(=N)N)C(N)=O | PTPN1 | enzyme activity, substrate |  | pH 7.4 |  | Km | 14 ± 2 µM
NS(=O)(=O)c1nnc(NC(=O)C2C3CC4CC(C3)CC2C4)s1 (stereo not drawn) |  |  | n-octanol/PBS | pH 7.4 |  | logD | 1.5
